# Published values from different studies.
# Each numbered part is a random draw from the data of one study; scales do not carry over between parts.

# Study 1
# Target: RNA binding protein fox-1 homolog 2, RRM domain, GST-SBP tag (RBFOX2, Homo sapiens, UniProt O43251-10, residues 100-194)
# Method: RNA Bind-n-Seq
# Molecule type: RNA
# Matrix: in vitro
# Tested at: 365 nM
# Notes: natural RNA segment, single round, ends assumed
# Baseline: no-protein control
# Direction: higher = stronger binding
# Residues (chain): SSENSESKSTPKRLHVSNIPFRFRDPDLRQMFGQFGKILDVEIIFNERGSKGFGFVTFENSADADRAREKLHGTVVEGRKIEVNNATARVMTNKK
Sequence,RBNS enrichment (R)
GGGAGUUCUACAGUCCGACGAUCUUAGGAUAAUGGUGGACAUUUCAGUGCAUGUUUAGCUAAUGAACUUAGUUUUCUUUGCCCUUUCCAUGUUGUAGGCUACAUACAUCUCCAUGUUCAUUCUCAUGUUUUUUUGGAAUUCUCGGGUGCCAA,1.14
GGGAGUUCUACAGUCCGACGAUCAAGUGUACUUAUAUGUAAUCCUUAAAUUUUAAACUAGCUUGUGAUUUUUAAAUAUUUCUAAACUUUUCUUAAACCACUAAAAUUAAGCUCUUACUACUUAGUCAACUAUCUGGAAUUCUCGGGUGCCAA,0.482
GGGAGUUCUACAGUCCGACGAUCAAUUGUUAUAAUUAGAGUUGUGAUACAGAGUAUAUUUCCAUUCAGACAAUAUAUCAUAACUUAAUAAAUAUUGUAUUUUAGAUAUAUUCUCUAAUAAAAUUCAGAAUUCUUGGAAUUCUCGGGUGCCAA,0.795
GGGAGUUCUACAGUCCGACGAUCACAACUGUAGGUAAGGUUGUAAAUUCUGAGGAACAACAACACCACCACCACAACCAUGAGCCUUUCUUCAGUUUGCUCGGGUUGACGCGGGCUGCAGAGCAGCGUCUAGUUGGAAUUCUCGGGUGCCAA,0.293

# Study 2
# Target: Sal-like protein 4, full length isoform A (SALL4, Homo sapiens, UniProt Q9UJQ4, residues 1-1053)
# Sequence of UniProt Q9UJQ4 (whole entry, looked up): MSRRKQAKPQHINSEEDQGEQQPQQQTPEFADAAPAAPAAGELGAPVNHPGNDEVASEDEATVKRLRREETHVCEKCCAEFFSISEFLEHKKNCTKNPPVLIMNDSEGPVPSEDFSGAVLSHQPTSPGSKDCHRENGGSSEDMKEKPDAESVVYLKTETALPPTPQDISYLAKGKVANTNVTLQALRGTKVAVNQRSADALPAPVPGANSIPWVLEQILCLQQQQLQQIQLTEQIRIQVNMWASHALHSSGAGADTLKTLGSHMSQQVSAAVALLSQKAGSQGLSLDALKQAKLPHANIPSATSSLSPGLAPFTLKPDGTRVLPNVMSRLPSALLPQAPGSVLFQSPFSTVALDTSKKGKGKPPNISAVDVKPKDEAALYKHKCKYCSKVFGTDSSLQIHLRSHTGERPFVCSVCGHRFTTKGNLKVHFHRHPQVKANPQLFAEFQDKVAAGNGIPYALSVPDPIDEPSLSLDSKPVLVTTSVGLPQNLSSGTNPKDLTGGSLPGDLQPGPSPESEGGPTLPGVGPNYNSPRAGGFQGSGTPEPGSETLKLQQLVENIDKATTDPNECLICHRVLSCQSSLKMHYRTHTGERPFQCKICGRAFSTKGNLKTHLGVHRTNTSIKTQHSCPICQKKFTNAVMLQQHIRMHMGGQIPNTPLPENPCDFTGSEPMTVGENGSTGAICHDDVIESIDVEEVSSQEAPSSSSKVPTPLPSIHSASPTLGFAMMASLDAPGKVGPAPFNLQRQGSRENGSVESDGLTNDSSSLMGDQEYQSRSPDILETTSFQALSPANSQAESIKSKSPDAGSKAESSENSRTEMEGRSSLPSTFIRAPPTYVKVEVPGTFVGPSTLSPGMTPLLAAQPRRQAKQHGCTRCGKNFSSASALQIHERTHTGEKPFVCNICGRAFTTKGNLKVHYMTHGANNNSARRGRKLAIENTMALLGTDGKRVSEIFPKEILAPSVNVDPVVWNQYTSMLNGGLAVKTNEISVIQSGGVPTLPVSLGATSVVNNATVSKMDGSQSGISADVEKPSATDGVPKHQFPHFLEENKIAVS
# Method: universal PBM
# Molecule type: double-stranded DNA, one strand shown
# Matrix: in vitro
# Tested at: 600 nM
# Notes: 8-mer, flanks averaged, mean of replicates
# Direction: higher = stronger binding
Sequence,E-score
GTCTTTCA,0.00613
AATCACAT,0.172
CCCGAAAA,0.122
CTTGATGA,0.13

# Study 3
# Target: Histone acetyltransferase KAT6A, winged helix 2, GST fusion (KAT6A, Homo sapiens, UniProt Q92794, residues 85-181)
# Method: protein binding microarray
# Molecule type: double-stranded DNA, one strand shown
# Matrix: in vitro
# Tested at: not given
# Notes: 8-mer, flanks averaged, mean of 2 arrays, mostly near background
# Baseline: not given
# Direction: higher = stronger binding
# Construct (chain): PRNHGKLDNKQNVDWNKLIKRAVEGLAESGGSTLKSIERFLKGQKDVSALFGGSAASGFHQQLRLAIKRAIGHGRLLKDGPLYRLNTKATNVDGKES
Sequence,E-score
GTTAGGCA,-0.055
GTAACCAA,0.082
CGTAAAAA,0.0263
GGGTTTAA,-0.00304

# Further values, each from its own experiment
Substance,target,assay,system,setting,how to read,endpoint,value
"PhoQ, residues 284 288 289 292 302 303 AAQSYM","PhoP, residues 12 14 15 18 19 IQSYL (Escherichia coli, UniProt P23836)","Sort-seq, measured: YFP reporter",E. coli,"PhoQ-PhoP variant library, added: 10 µM Mg2+","baseline: high Mg2+ state, higher = stronger signaling",fold induction,5.63

# A few entries again (study 3):
Sequence,E-score
GTAACCAA,0.082
